Results of several laboratories.
Lines come from different studies, so protocols differ. Values joined by “and” are separate records of one study, mostly repeats; a detail may differ. Numbers after ± are the reported error.
SCRIB PDZ3 domain: Protein scribble homolog, PDZ3 domain (SCRIB, Homo sapiens, UniProt Q14160)
UniProt Q14160, sequence (whole entry, looked up): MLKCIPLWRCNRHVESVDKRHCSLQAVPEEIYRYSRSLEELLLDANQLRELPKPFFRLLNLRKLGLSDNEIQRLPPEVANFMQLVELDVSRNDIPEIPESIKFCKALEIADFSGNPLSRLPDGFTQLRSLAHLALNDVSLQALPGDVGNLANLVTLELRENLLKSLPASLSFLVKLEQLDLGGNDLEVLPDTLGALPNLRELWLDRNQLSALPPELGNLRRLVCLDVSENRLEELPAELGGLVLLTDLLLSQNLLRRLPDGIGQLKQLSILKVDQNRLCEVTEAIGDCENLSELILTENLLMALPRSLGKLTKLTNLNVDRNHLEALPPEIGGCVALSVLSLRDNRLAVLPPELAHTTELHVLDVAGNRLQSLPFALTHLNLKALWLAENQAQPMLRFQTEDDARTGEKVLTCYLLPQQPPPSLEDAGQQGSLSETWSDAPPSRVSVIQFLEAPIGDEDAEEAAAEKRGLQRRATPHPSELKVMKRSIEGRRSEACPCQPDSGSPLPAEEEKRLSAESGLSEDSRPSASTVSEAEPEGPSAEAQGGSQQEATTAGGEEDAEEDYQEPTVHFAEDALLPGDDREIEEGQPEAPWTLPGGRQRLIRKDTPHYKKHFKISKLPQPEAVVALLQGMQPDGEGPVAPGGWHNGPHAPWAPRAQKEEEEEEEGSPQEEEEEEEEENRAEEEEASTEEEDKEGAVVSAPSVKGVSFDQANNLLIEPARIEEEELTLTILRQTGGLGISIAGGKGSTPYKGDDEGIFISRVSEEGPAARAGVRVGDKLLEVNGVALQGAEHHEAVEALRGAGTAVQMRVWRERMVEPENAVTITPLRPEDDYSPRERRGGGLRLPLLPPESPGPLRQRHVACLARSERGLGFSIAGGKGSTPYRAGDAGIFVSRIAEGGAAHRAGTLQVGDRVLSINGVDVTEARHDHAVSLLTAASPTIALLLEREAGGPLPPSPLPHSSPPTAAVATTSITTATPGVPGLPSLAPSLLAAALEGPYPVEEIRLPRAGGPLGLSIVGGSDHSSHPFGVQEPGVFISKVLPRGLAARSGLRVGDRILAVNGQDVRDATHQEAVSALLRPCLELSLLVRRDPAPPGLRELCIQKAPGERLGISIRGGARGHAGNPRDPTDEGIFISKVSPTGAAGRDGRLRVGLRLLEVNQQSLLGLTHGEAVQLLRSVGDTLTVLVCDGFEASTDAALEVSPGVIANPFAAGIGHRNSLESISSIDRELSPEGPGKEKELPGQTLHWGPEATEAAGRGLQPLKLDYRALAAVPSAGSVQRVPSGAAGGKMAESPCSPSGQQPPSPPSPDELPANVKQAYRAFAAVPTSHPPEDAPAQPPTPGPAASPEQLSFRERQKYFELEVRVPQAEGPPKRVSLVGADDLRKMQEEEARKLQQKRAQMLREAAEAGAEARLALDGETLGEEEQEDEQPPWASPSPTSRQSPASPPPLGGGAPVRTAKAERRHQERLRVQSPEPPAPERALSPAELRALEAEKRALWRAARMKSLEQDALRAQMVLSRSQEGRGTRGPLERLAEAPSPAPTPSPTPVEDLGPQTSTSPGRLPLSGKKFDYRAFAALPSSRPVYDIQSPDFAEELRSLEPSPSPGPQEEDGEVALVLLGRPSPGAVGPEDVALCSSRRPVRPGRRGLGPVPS
UniProt O75608, sequence (whole entry, looked up): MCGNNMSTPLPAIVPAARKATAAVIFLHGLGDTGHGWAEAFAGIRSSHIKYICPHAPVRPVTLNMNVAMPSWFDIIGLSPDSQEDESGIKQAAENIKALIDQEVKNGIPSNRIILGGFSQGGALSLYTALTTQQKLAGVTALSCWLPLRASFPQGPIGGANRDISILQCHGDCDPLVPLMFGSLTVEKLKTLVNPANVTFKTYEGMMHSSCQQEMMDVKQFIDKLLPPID

Oc1ccc(C2(c3ccc(O)cc3)c3ccccc3-c3ccccc32)cc1 — G2 phase cells (HepG2 spheroids; Hoechst flow cytometry; 10 µM, 96 h): 16.5 ± 5.85%
CC(C)=CCC/C(C)=C\CCn1cc(C2CC2(P(=O)([O-])[O-])P(=O)([O-])[O-])nn1.[Na+].[Na+].[Na+].[Na+] (stereo not shown) — inhibition of geranylgeranylation (MM.1S; refers to: unmodified Rap1a; concentration not given, 48 h): inactive
CC[C@H](C)[C@H](NC(=O)[C@H](CC(=O)O)NC(=O)[C@H](CC(N)=O)NC(=O)[C@H](CC(C)C)NC(=O)[C@H](C)NC(=O)[C@H](CC(N)=O)NC(=O)[C@@H](N)CC(=O)O)C(=O)N[C@H](C(=O)N[C@@H](CO)C(=O)N[C@@H](CC(C)C)C(=O)O)[C@@H](C)O — Kd (SCRIB PDZ3 domain; binding, fluorescence polarization; solution; Scribble PDZ3 domain): 54.4 µM
CC[C@H](C)[C@@H]1NC(=O)[C@@H]2CCCN2C(=O)[C@H](CC(C)C)NC(=O)[C@H](CC(C)C)NC(=O)CNC(=O)[C@@H](NC(=O)[C@@H](NC(=O)[C@H](CC(=O)O)NC(=O)CNC(=O)[C@@H](NC(=O)[C@H](C)NC(=O)CNC(=O)[C@H](CCCCN)NC(=O)[C@H](CC(C)C)NC(=O)[C@H](CC(C)C)NC(=O)[C@H](CCCCN)NC(=O)CNC(=O)[C@@H](NC(=O)[C@@H](N)CC(C)C)C(C)C)C(C)C)C(C)C)CSSC[C@@H](C(=O)O)NC1=O — log2 fold change (RNA-seq, refers to: Tmprss6; mouse, traumatic brain injury model, frontal cortex and hippocampus; dose not given; baseline: TBI alone): -2.73
O=C(O)C[C@H](NC(=O)[C@H](CC(=O)O)NC(=O)[C@H](CC(=O)O)NC(=O)[C@H](CC(=O)O)NC(=O)[C@H](CC(=O)O)NC(=O)[C@H](CC(=O)O)NC(=O)[C@H](CC(=O)O)NC(=O)[C@H](CC(=O)O)NC(=O)[C@H](CC(=O)O)NC(=O)[C@H](CC(=O)O)NC(=O)[C@H](CC(=O)O)NC(=O)[C@H](CCCCNC(=O)c1ccc(C(=O)NCCOCCOB2BBBBBB3BBBB3B2)cc1)NC(=O)CN1CCN(CC(=O)O)CCN(CC(=O)O)CCN(CC(=O)O)CC1)C(=O)O [gallium-67 labelled] — tissue uptake (ddY male mice, kidney; intravenous, 37 kBq, 3 h): 3.4 %ID/g
COc1cc(CCC[P+](c2ccccc2)(c2ccccc2)c2ccccc2)c(OC)c2c1OCO2.[I-] — GI50 (RXF 393; SRB): -5.7 log M
CC[C@H](C)[C@H](NC(=O)CN)C(=O)NCC(=O)N[C@@H](C)C(=O)N[C@H](C(=O)N[C@@H](CC(C)C)C(=O)N[C@@H](CCCCN)C(=O)N[C@H](C(=O)N[C@@H](CC(C)C)C(=O)N[C@H](C(=O)N[C@H](C(=O)NCC(=O)N[C@@H](CC(C)C)C(=O)N1CCC[C@H]1C(=O)N[C@@H](C)C(=O)N[C@@H](CC(C)C)C(=O)N[C@H](C(=O)N[C@@H](CO)C(=O)N[C@@H](Cc1c[nH]c2ccccc12)C(=O)N[C@H](C(=O)N[C@@H](Cc1c[nH]cn1)C(=O)N[C@@H](Cc1c[nH]cn1)C(=O)N[C@@H](Cc1c[nH]cn1)C(=O)N[C@@H](Cc1c[nH]cn1)C(=O)N[C@@H](CCC(=O)O)C(=O)N[C@@H](CCC(=O)O)C(=O)N[C@@H](CS)C(N)=O)[C@@H](C)CC)[C@@H](C)CC)[C@@H](C)O)[C@@H](C)O)C(C)C)C(C)C — EC50 (human red blood cells; pH 7.4; baseline: Triton X-100): 9 µM
CC(C)C[C@@H]1NC(=O)[C@@H](NC(=O)OCc2ccccc2)Cc2cn(nn2)CCCNC(=O)CC[C@@H](C=O)NC1=O — EC50 (HG23 norovirus replicon cells; viral replication, qRT-PCR; 48 h): 81.5 µM
COc1ccc([C@H]2c3[nH]c4ccc(Cl)cc4c3CCN2C(=O)Oc2ccc(Cl)cc2)cc1 — inhibition (HUVEC and Th2 blast co-culture; BioMAP /TH2, refers to: MCP-1; 0.1 µM): 25%
COc1cc2c(Oc3ccc4[nH]c(C)cc4c3F)ccnc2cc1OCC1(N)CC1 — grade 1 or 2 Dizzy (paediatric recurrent refractory sarcoma; 10 mg): 0%
O=c1c(O)c(-c2ccc(O)c(O)c2)oc2cc(O)cc(O)c12 — neurite process number (induced SH-SY5Y Aβ-GFP cells; 5 µM): 3.5 to 3.6
CC(C)C[C@H](NC(=O)[C@H](CC(=O)O)NC(=O)[C@@H](NC(=O)[C@H](CO)NC(=O)[C@H](C)NC(=O)[C@H](CCCCN)NC(=O)[C@H](C)NC(=O)[C@@H](NC(=O)[C@H](CC(C)C)NC(=O)[C@@H](N)C(C)C)[C@@H](C)O)[C@@H](C)O)C(=O)O — Kd (SCRIB PDZ3 domain; binding, fluorescence polarization; solution; Scribble PDZ3 domain): 11.3 µM
O=C1NC(=O)c2c1c1c3ccccc3n3c1c1c2c2ccccc2n1C1CCC3O1 — inhibition (HeLa expressing Ub(G76V)-GFP; Ub(G76V)-GFP degradation, cycloheximide chase; 12 µM): 100%
COc1c(CCC[P+](c2ccccc2)(c2ccccc2)c2ccccc2)cc2c(c1OC)OCO2.[I-] — LC50 (HCC 2998; SRB): -4.3 log M
c1ccc([C@@H]2C[C@H]2NC2CCNCC2)cc1 — viability (HBL-1; 1 µM, 120 h): 114%
C[C@@H](O)[C@@H](CO)NC(=O)[C@@H](CCCNC(=N)N)NC(=O)[C@@H]1CCCN1C(=O)[C@@H]1CSSC[C@H](NC(=O)[C@H](Cc2ccccc2)NC(=O)CN2CCN(CC(=O)O)CCN(CC(=O)O)CCN(CC(=O)O)CC2)C(=O)N[C@@H](Cc2ccc(O)cc2)C(=O)N[C@@H](Cc2ccccc2)C(=O)N[C@@H](CCC(N)=O)C(=O)N[C@@H](CC(N)=O)C(=O)N1 [gallium-68 labelled] — radiochemical purity (human serum; 0 h, 37 °C): > 99%
Cn1cncc1C1=CN(c2ncnc3[nH]cnc23)CCS1 — CC50 (NCI-H23; lung cancer): > 200 µM
C[C@]12CC[C@H](O)C[C@H]1CC[C@@H]1[C@@H]2CC[C@]2(C)[C@@H](c3ccc(=O)oc3)CC[C@]12O — mRNA level (MCF7; RT-qPCR, refers to: SIAH2; 20 nM, 48 h, without estradiol, unit not given; baseline: untreated): 0.497 and 0.606 and 0.45
CN1CCN(C2(CNC3CCN(c4cccc(-c5cc6cc(F)ccc6[nH]5)c4)CC3)CCC2)CC1 — GI50 (RXF 393): 1.53 µM
O=C(c1ccc(Cl)cc1)N1CCN2C(=O)N(OC(=O)N3CCOc4ccccc43)C(=O)C2C1 (stereo not shown) — mean protein ratio (Acyl-protein thioesterase 1 (Homo sapiens, UniProt O75608); MS-based ABPP; SW-620 conditioned medium; 10 µM, 1 h, 37 °C; baseline: compound over DMSO, lower = more inhibition): 0.94
CN1CCN(S(=O)(=O)c2cc([N+](=O)[O-])ccc2N(CCOS(C)(=O)=O)CCOS(C)(=O)=O)CC1 — IC50 (sample DC T-ALL PDX cells; cell viability; ex vivo; 48 h, with: AKR1C3 inhibitor 1 µM, 1 h pretreatment): 3.86 µM
CC(C)=CCCC1(C)C=Cc2c(O)c3c(c(CC=C(C)C)c2O1)OC12C(=CC4CC1C(C)(C)OC2(C/C=C(/C)C(=O)O)C4O)C3=O (stereo not shown) — activity score (human iPSC-derived cardiomyocytes; MyBP-C/MYH ratio, plate-normalised SD score; concentration not given, primary screen; direction not given): 5.3
N=C(N)NCCC[C@H](NC(=O)[C@@H](Cc1ccccc1)NC(=O)[C@H](Cc1c[nH]cn1)NC(=O)CCCc1ccccc1)C(=O)N[C@@H](Cc1c[nH]c2ccccc12)C(=O)NCC(=O)N[C@@H](CCCCNC(=O)CCCCCNC(=O)CN1CCN(CC(=O)O)CCN(CC(=O)O)CCN(CC(=O)O)CC1)C(N)=O [actinium-225 labelled] — tumour uptake rate constant (kti) (five-compartment model fit; SCID mice, A-375 and A-375/MC1R xenografts): 0.0031 h⁻¹
CC(C)N1CCC(NC2CCN(c3cccc(-c4cc5cc(F)ccc5[nH]4)c3)CC2)CC1 — CC50 (NCI-H23): 6.21 µM
Nc1ncnc2c1ncn2[C@@H]1O[C@@H]2COP(=O)(O)O[C@H]3[C@@H](O)[C@H](n4cnc5c(=O)[nH]cnc54)O[C@@H]3COP(=O)(O)O[C@H]2[C@H]1O — fold enrichment (HFF-1; RNA sequencing, refers to: Reactome R-HSA-197264; upregulated pathways; baseline: mock): 12

Some of these lines once more:
CC(C)C[C@@H]1NC(=O)[C@@H](NC(=O)OCc2ccccc2)Cc2cn(nn2)CCCNC(=O)CC[C@@H](C=O)NC1=O — EC50 (HG23 norovirus replicon cells; viral replication, qRT-PCR; 48 h): 81.5 µM
O=C(O)C[C@H](NC(=O)[C@H](CC(=O)O)NC(=O)[C@H](CC(=O)O)NC(=O)[C@H](CC(=O)O)NC(=O)[C@H](CC(=O)O)NC(=O)[C@H](CC(=O)O)NC(=O)[C@H](CC(=O)O)NC(=O)[C@H](CC(=O)O)NC(=O)[C@H](CC(=O)O)NC(=O)[C@H](CC(=O)O)NC(=O)[C@H](CC(=O)O)NC(=O)[C@H](CCCCNC(=O)c1ccc(C(=O)NCCOCCOB2BBBBBB3BBBB3B2)cc1)NC(=O)CN1CCN(CC(=O)O)CCN(CC(=O)O)CCN(CC(=O)O)CC1)C(=O)O [gallium-67 labelled] — tissue uptake (ddY male mice, kidney; intravenous, 37 kBq, 3 h): 3.4 %ID/g
COc1cc2c(Oc3ccc4[nH]c(C)cc4c3F)ccnc2cc1OCC1(N)CC1 — grade 1 or 2 Dizzy (paediatric recurrent refractory sarcoma; 10 mg): 0%
CN1CCN(C2(CNC3CCN(c4cccc(-c5cc6cc(F)ccc6[nH]5)c4)CC3)CCC2)CC1 — GI50 (RXF 393): 1.53 µM
